Measured values from different studies.
Each line is one published result; not all experiments were run side by side. “And” joins repeats or separate records; there may be more than shown.
Organism: SARS-CoV-2

SMILES	assay	test system	conditions	how to read	measurement	result
Cc1ccc(N2CC(N3CCC(C)(O)CC3)C2)cc1C(=O)NC1(c2ccc3c4c(cccc24)CC3)CC1	viral replication	Vero C1008, Omicron BA.5	0.1543 µM	–	inhibition	5%
CC(C)(C)NC(=O)[C@@H](c1cccnc1)N(C(=O)c1ccco1)c1ccc(C(C)(C)C)cc1	–	Vero	1 µM	–	viral titre	1.04e+06 IU/mL
CCCC/C=C/C(=O)N[C@@H](Cc1csc2ccccc12)C(=O)N[C@H]1COC(=O)[C@@H]2C[C@@H](C)CN2C(=O)[C@H](C)NC(=O)[C@@H]2CCCCN2C(=O)[C@@H]2CCCN2C1=O	–	Huh-7	concentration not given, 6 h, unit not given	reference: DMSO	viral RNA release	0.218 and 0.328 and 0.321
CC(C)CC(C(=O)N1CC2(CC1C#N)C(=O)Nc1ccccc12)N(C)C(=O)c1cc2c(F)cc(F)c(F)c2[nH]1 (centres unmarked)	viral replication	Vero E6	0.1111 µM	–	inhibition	96.3% and 101% and 98.9%
Cc1oc2nc1C(=O)N[C@](C)(C(=O)O)c1nc(c(C)o1)C(=O)N[C@](C)(C(=O)O)c1nc(c(C)o1)C(=O)N[C@]2(C)C(=O)O	viral replication	Vero E6, NRC-03-nhCoV	2.5 µM	–	inhibition	11%
C[C@@H]1O[C@@H](n2c3ccccc3c3c4c(c5c6ccccc6[nH]c5c32)CNC4=O)C[C@@H](N)[C@H]1O	viral replication, item: nucleocapsid protein	Calu-3, Omicron BA.1	–	–	EC50	1700 nM
Cc1ccc(N2CCN(C)CC2)cc1C(=O)NC1(c2ccc3c4c(cccc24)CC3)CC1	viral replication	Vero C1008, wild type	12.5 µM	–	inhibition	100%
CC(=O)OC1(C)CC(C=C(C)CCC=C(C)C)OC2(C=C(CO)C3CC(=O)C(C)=CC3O2)C1 (centres unmarked)	viral replication, item: nucleocapsid protein	Calu-3, Omicron BA.5	–	–	EC50	300 nM
Cc1ccc(N2CC(N3CCC(C)(O)CC3)C2)cc1C(=O)NC1(c2ccc3c4c(cccc24)C(=O)N3C)CC1	viral replication	Vero C1008, wild type	0.01715 µM	–	inhibition	30%
CCCOP(=O)(O)Oc1c2c(c(OP(=O)(O)OCCC)c3c1C1CC3c3cc4c(cc31)C1CC4c3ccccc31)C1CC2c2cc3c(cc21)C1CC3c2ccccc21	spike pseudoparticle entry	Caco-2	–	–	IC50	15600 nM
Cc1oc2nc1C(=O)N[C@](C)(C(=O)OC(C)C)c1nc(c(C)o1)C(=O)N[C@](C)(C(=O)OC(C)C)c1nc(c(C)o1)C(=O)N[C@]2(C)C(=O)OC(C)C	viral replication	Vero E6, NRC-03-nhCoV	2.5 µM	–	inhibition	0%
Cc1ccc(N2CC3CC(C2)N3)cc1C(=O)NC1(c2ccc3c4c(cccc24)C(=O)N3C)CC1	viral replication	Vero C1008, wild type	0.1543 µM	–	inhibition	90%
Cc1oc2nc1C(=O)N[C@](C)(C(=O)NCCc1ccccc1)c1nc(c(C)o1)C(=O)N[C@](C)(C(=O)NCCc1ccccc1)c1nc(c(C)o1)C(=O)N[C@]2(C)C(=O)NCCc1ccccc1	viral replication	Vero E6, NRC-03-nhCoV	5 µM	–	inhibition	5%
Oc1ccc(Br)cc1-c1nc2cc(C(F)(F)F)ccc2s1	–	SB2	concentration not given, 3 h, unit not given	reference: DMSO	viral RNA level	0.0743 and 0.0876
